Experimental data pooled from the literature.
Numbered parts are unrelated; each lists some results of a single study. Several values in a cell are separate wells, animals, samples, runs or records.

Sample 1 — tested at: 1 µM; relative to: DMSO
SMILES: Cl.Cl.NC1(c2ccc(-c3nc4ccn5c(=O)[nH]nc5c4cc3-c3ccccc3)cc2)CCC1
cell line | setting | viability
sample B colorectal tumour organoid | replicate 1 | 67.5%
colorectal tumour organoids |  | 66.3%
sample C colorectal tumour organoid | replicate 2 | 82.9%
sample C colorectal tumour organoid | replicate 1 | 98.7%
sample BA colorectal tumour organoid |  | 57.9%
sample B colorectal tumour organoid | replicate 2 | 60.9%

Sample 2 — observed: enzyme activity; action: inhibitor; tested at: 0.5 µM; relative to: control
Target: Cyclin-dependent kinase 5, with p35 (CDK5, Homo sapiens, UniProt Q00535)
Sequence of UniProt Q00535 (whole entry, looked up): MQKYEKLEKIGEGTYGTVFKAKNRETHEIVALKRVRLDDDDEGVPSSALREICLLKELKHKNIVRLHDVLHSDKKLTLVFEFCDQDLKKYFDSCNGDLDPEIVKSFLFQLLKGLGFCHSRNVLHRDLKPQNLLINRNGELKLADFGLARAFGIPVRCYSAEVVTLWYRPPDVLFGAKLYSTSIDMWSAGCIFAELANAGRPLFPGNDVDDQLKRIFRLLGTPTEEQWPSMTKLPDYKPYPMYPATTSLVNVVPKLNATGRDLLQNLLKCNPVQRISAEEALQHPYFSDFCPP
SMILES | remaining activity [%]
N#CC(=C(N)Sc1ccc(N)cc1)c1ccccc1C(F)(F)F | 103
Fc1ccc(-c2nc3n(c2-c2ccncc2)CCS3)cc1 | 97.8
CCc1[nH]c(-c2ccc(OC)cc2)nc1-c1ccncc1 | 100
CCCC(=O)Oc1ccc2[nH]c(C(=O)c3cc4ccccc4[nH]3)cc2c1 | 97.5
CC#CC(=O)Nc1cc2c(Nc3ccc(F)c(Cl)c3)ncnc2cn1 | 97.9
Cc1cc(Nc2nc(-c3ccccc3)nc3ccccc23)n[nH]1 | 77.1
Nc1nccc(-c2c(-c3ccc(F)cc3)ncn2C2CCNCC2)n1 | 102
Cc1cncc2cccc(S(=O)(=O)N3CCCN(C(=O)CN)C[C@@H]3C)c12 | 97.4
O=S(=O)(NCCNC/C=C/c1ccc(Br)cc1)c1cccc2cnccc12 | 92.6
CC(=O)c1ccc(N2CCOCC2)cc1O | 97.1
NC(=O)c1ccc(N(C(N)=O)c2c(F)cccc2F)nc1-c1ccc(F)cc1F | 99.9
Oc1ccc(Nc2nc(-c3ccc(Cl)cc3)cs2)cc1 | 104
COc1ccc(S(=O)(=O)N(CCO)c2ccccc2CN(C)CC=Cc2ccc(Cl)cc2)cc1 | 99.9
CC(C)(C)n1nc(Cc2cccc3ccccc23)c2c(N)ncnc21 | 95.6
Cc1ccc(NC2=CC(=O)c3sc(C)nc3C2=O)cc1 | 86.3
CSc1nc(-c2ccnc(N[C@@H](C)c3ccccc3)c2)c(-c2ccc(F)cc2)[nH]1 (racemic) | 101
O=C1Cc2c([nH]c3ccc([N+](=O)[O-])cc23)-c2ccccc2N1 | 7.98
COc1cc(Nc2c(C#N)cnc3cc(OCCCN4CCN(C)CC4)c(OC)cc23)c(Cl)cc1Cl | 98.3
Nc1ncnc2c1cnn2-c1ccccc1 | 99.2
CC[n+]1c(/C=C/N(C)c2ccccc2)n(-c2ccccc2)c2ccc(-c3nc4ccccc4s3)cc21 | 97.6

Sample 3 — cell line: mouse MPNST tumor cells; technique: high-content immunofluorescence imaging; item: nuclear SOX9; tested at: 10 µM; time: 12 h; setting: mean of 2 replicates; relative to: DMSO control; reading: higher = more nuclear SOX9
Structure (SMILES) | nuclear SOX9 intensity
CC(C)(CO)n1cc(C(=O)c2cncc(NC(=O)Cc3ccc(Cl)cn3)c2)c2cnc(N)nc21 | 101 % of DMSO
CC=CC1=C(C(=O)O)N2C(=O)[C@@H](NC(=O)[C@H](N)c3ccc(O)cc3)[C@H]2SC1 | 87.4 % of DMSO
NS(=O)(=O)c1ccc(N2CCN(CC[C@@H]3OCCc4ccccc43)CC2)cc1 | 94.2 % of DMSO
O=C(O)COCCN1CCN(C(c2ccccc2)c2ccc(Cl)cc2)CC1 (stereo not shown) | 101 % of DMSO
CN1CC2c3ccccc3Oc3ccc(Cl)cc3C2C1 (stereo not shown) | 126 % of DMSO and 184 % of DMSO and 144 % of DMSO
CCOC(=O)[C@H](CCc1ccccc1)N[C@H]1CCc2ccccc2N(CC(=O)O)C1=O | 94.9 % of DMSO and 93.6 % of DMSO
CC(C)(NS(=O)(=O)c1ccc(Oc2ccc(F)cc2)cc1)C(=O)NO | 110 % of DMSO
Nc1nc(NCc2ccccc2)nc(-c2ccccc2CO)n1 | 107 % of DMSO
Cc1ccc(-c2n[nH]c3c2C(c2cccc(O)c2)N(c2ccc(C(=O)O)cc2)C3=O)cc1 (stereo not shown) | 99.4 % of DMSO
CCCc1cc(=O)[nH]c(=S)[nH]1 | 95.7 % of DMSO and 97.5 % of DMSO
CN1[C@@H]2CC[C@H]1C[C@@H](OC(=O)C(O)c1ccccc1)C2 (mixture of isomers) | 98.3 % of DMSO
C=CCOc1ccc(C2CC(=O)Nc3nc(N)[nH]c(=O)c32)cc1OC (stereo not shown) | 101 % of DMSO
COc1c(C)cnc(Cn2cnc3c(Cl)nc(N)nc32)c1C | 75 % of DMSO
CCN(CC)CCNC(=O)COc1ccc(OC)cc1 | 103 % of DMSO
COc1ccc(-c2ccc3cc(C(=O)O)ccc3c2)cc1C12CC3CC(CC(C3)C1)C2 | 110 % of DMSO and 142 % of DMSO
c1cnc2cc3c(cc2n1)[C@@H]1CNC[C@H]3C1 | 130 % of DMSO and 106 % of DMSO
CCc1nc2c(c3cc(OC)c(OC)cc13)C(=O)NC2=O | 104 % of DMSO

Sample 4 — technique: logD(dd/w) and ALogP; setting: JT method
SMILES | lipophilic permeability efficiency
CC(C)C[C@@H]1NC(=O)[C@H](C)NC(=O)[C@H](CCC(=O)N2CCCC2)NC(=O)[C@H](CC(C)C)NC(=O)[C@@H](Cc2cscn2)NC(=O)[C@H](CC(C)C)NC(=O)[C@@H](CC(C)C)NC1=O | 1.49
CC(C)C[C@@H]1NC(=O)[C@H](C)NC(=O)[C@@H](CC(C)C)NC(=O)[C@H](C)NC(=O)[C@H](C)NC(=O)[C@H](CC(C)C)NC(=O)[C@@H](CC(C)C)NC1=O | 2
CC(C)C[C@@H]1NC(=O)[C@H](CCC(=O)N2CCCC2)NC(=O)[C@H](CCC(=O)N2CCCC2)NC(=O)[C@@H](Cc2cscn2)NC(=O)[C@H](CC(C)C)NC(=O)[C@@H](CC(C)C)NC(=O)[C@H](CC(C)C)NC1=O | 1.61
CC(C)C[C@@H]1NC(=O)[C@H](CC(C)C)NC(=O)[C@@H](C(C)C)NC(=O)[C@@H](C)NC(=O)[C@H](C)NC(=O)[C@@H](CC(C)C)NC(=O)[C@H](C)NC1=O | 1.99
CC(C)C[C@@H]1NC(=O)[C@H](CC(C)C)NC(=O)[C@@H](CC(C)C)NC(=O)[C@@H](C)NC(=O)[C@H](C(C)C)NC(=O)[C@H](Cc2cscn2)NC(=O)[C@H](C)NC1=O | 2.27
CC(C)C[C@@H]1NC(=O)[C@H](CCC(=O)N2CCCC2)NC(=O)[C@@H](C(C)C)NC(=O)[C@H](C)NC(=O)[C@H](CC(C)C)NC(=O)[C@@H](CC(C)C)NC(=O)[C@H](CC(C)C)NC1=O | 1.93
CC(C)C[C@@H]1NC(=O)[C@H](C)NC(=O)[C@@H](CC(C)C)NC(=O)[C@H](C)NC(=O)[C@H](C(C)C)NC(=O)[C@H](CC(C)C)NC(=O)[C@@H](CC(C)C)NC1=O | 2.6
CC(C)C[C@@H]1NC(=O)[C@H](CC(C)C)NC(=O)[C@@H](CC(C)C)NC(=O)[C@H](C(C)C)NC(=O)[C@@H](CCC(=O)N2CCCC2)NC(=O)[C@H](C)NC(=O)[C@H](C)NC1=O | 1.3
CC(C)C[C@@H]1NC(=O)[C@H](C)NC(=O)[C@H](CC(C)C)NC(=O)[C@@H](CC(C)C)NC(=O)[C@H](CC(C)C)NC(=O)[C@H](C)NC(=O)[C@@H](CC(C)C)NC1=O | 2.18

For quick reference, copied from above (sample 2):
SMILES | remaining activity [%]
CCCC(=O)Oc1ccc2[nH]c(C(=O)c3cc4ccccc4[nH]3)cc2c1 | 97.5
COc1cc(Nc2c(C#N)cnc3cc(OCCCN4CCN(C)CC4)c(OC)cc23)c(Cl)cc1Cl | 98.3
O=S(=O)(NCCNC/C=C/c1ccc(Br)cc1)c1cccc2cnccc12 | 92.6
CC[n+]1c(/C=C/N(C)c2ccccc2)n(-c2ccccc2)c2ccc(-c3nc4ccccc4s3)cc21 | 97.6
CSc1nc(-c2ccnc(N[C@@H](C)c3ccccc3)c2)c(-c2ccc(F)cc2)[nH]1 (racemic) | 101
O=C1Cc2c([nH]c3ccc([N+](=O)[O-])cc23)-c2ccccc2N1 | 7.98
